{"data": "Experimental data pooled from the literature", "note": "Compare with care: the assays were run in different laboratories. ± gives the spread as reported."}
{"SMILES": "CC[C@H](C)[C@H](NC(=O)[C@H](CCCCN)NC(=O)CNC(=O)[C@H](CC(C)C)NC(=O)[C@H](Cc1ccccc1)NC(=O)[C@H](CCCCN)NC(=O)[C@H](CO)NC(=O)[C@H](Cc1ccccc1)NC(=O)[C@H](Cc1c[nH]c2ccccc12)NC(=O)[C@H](CCC(N)=O)NC(=O)[C@@H](NC(=O)[C@H](Cc1ccccc1)NC(=O)CCCCCNC(=O)CN1CCN(CC(=O)O)CCN(CC(=O)O)CCN(CC(=O)O)CC1)C(C)C)C(=O)N[C@@H](CCC(=O)O)C(=O)N1CCC[C@H]1C(=O)N[C@H](CC(=O)O)C(=O)N[C@H](C(=O)N[C@@H](CO)C(=O)N[C@@H](CCC(N)=O)C(=O)N[C@H](C(=O)N[C@@H](CCC(N)=O)C(=O)N[C@@H](CC(=O)O)C(=O)N1CCC[C@H]1C(=O)N[C@@H](CC(N)=O)C(=O)N[C@@H](CC(=O)O)C(=O)N[C@@H](CCC(N)=O)C(=O)N[C@@H](Cc1ccc(O)cc1)C(=O)N[C@@H](CCC(=O)O)C(=O)N1CCC[C@H]1C(=O)N[C@@H](Cc1ccccc1)C(=O)O)C(C)C)C(C)C [copper-64 labelled]", "system": "C57BL/6 mice, male, MC-38 tumour-bearing, blood", "conditions": "2 h, checkpoint inhibitor-treated", "tissue uptake": "0.39 ± 0.03 %ID/g"}
{"SMILES": "[2H]C([2H])([18F])[C@]([2H])(N)C(=O)O", "test": "PET", "system": "athymic nude mice, U-87 MG, muscle", "conditions": "dose not given, 30 min post-injection", "tissue uptake": "1.1 ± 0.11 %ID/cc"}
{"SMILES": "CC[C@H](C)[C@H](NC(=O)[C@H](CCCNC(=N)N)NC(=O)[C@H](CCCCN)NC(=O)[C@H](Cc1ccc(O)cc1)NC(=O)[C@H](CC(=O)O)NC(=O)[C@H](C)NC(=O)CNC(=O)CCOCCOCCOCCNC(=O)CN1CCN(CC(=O)O)CCN(CC(=O)O)CCN(CC(=O)O)CC1)C(=O)N[C@H](C(=O)N[C@H](C(=O)N[C@@H](CCCCN)C(=O)N[C@H](C(=O)N[C@@H](CC(N)=O)C(N)=O)C(C)C)C(C)C)[C@@H](C)O [copper-64 labelled]", "test": "ex vivo gamma counting", "system": "C57BL/6J male mice, B16-F10 tumour, testis", "conditions": "intravenous, 1.85 MBq, 20 min", "tissue uptake": "0.599 ± 0.016 %ID/g"}
{"SMILES": "C[C@H](O)[C@@H](NC(=O)[C@H]1CCCN1C(=O)[C@@H](CCCCN)NC(=O)[C@@H](CO)NC(=O)[C@@H](Cc1ccc(O)cc1)NC(=O)[C@@H](CC(N)=O)NC(=O)CCOCCOCCOCCNC(=O)CN1CCN(CC(=O)O)CCN(CC(=O)O)CCN(CC(=O)O)CC1)C(=O)N[C@H](CC(=O)O)C(=O)N[C@H](CCCNC(=N)N)C(=O)N[C@H](CCC(N)=O)C(=O)N[C@H](Cc1ccc(O)cc1)C(=O)N[C@H](Cc1c[nH]cn1)C(=O)N[C@H](Cc1ccccc1)C(N)=O [copper-64 labelled]", "system": "C57BL/6J mice, liver", "conditions": "intravenous, 1.85 MBq, 1.333 h, radiolabelled", "tissue uptake": "1.29 ± 0.08 %ID/g"}
{"SMILES": "CC[C@H](C)[C@H](NC(=O)[C@H](CCCNC(=N)N)NC(=O)[C@H](CCCCN)NC(=O)[C@H](Cc1ccc(O)cc1)NC(=O)[C@H](CC(=O)O)NC(=O)[C@H](C)NC(=O)CNC(=O)CCOCCOCCOCCNC(=O)CN1CCN(CC(=O)O)CCN(CC(=O)O)CCN(CC(=O)O)CC1)C(=O)N[C@H](C(=O)N[C@@H](CC(C)C)C(=O)N[C@@H](CCCCN)C(=O)N[C@H](C(=O)N[C@@H](CC(N)=O)C(N)=O)C(C)C)[C@@H](C)O [copper-64 labelled]", "test": "ex vivo gamma counting", "system": "C57BL/6J male mice, B16-F10 tumour, bone", "conditions": "intravenous, 1.85 MBq, 5 min", "tissue uptake": "1.26 ± 0.126 %ID/g"}
{"SMILES": "CCCC[C@H]1C(=O)N(C)[C@@H](CCCC)C(=O)N[C@@H](CCCNC(=O)CN2CCN(CC(=O)O)CCN(CC(=O)O)CCN(CC(=O)O)CC2)C(=O)N[C@H](C(=O)NCC(N)=O)CSCC(=O)N[C@@H](Cc2ccc(O)cc2)C(=O)N(C)[C@@H](C)C(=O)N[C@@H](CC(N)=O)C(=O)N2CCC[C@H]2C(=O)N[C@@H](Cc2c[nH]cn2)C(=O)N[C@@H](CC(C)C)C(=O)N(C)CC(=O)N[C@@H](Cc2c[nH]c3ccccc23)C(=O)N[C@@H](CO)C(=O)N[C@@H](Cc2c[nH]c3ccccc23)C(=O)N1C [gallium-68 labelled]", "system": "NOD/SCID mice, CHO-hPD-L1 xenograft, muscle", "conditions": "60 min, atezolizumab 10 mg/kg pretreatment", "tissue uptake": "1.09 ± 0.11 %ID/g"}
{"SMILES": "CSCC[C@H](NC(=O)CNC(=O)[C@H](CCCCN)NC(=O)[C@H](CC(C)C)NC(=O)[C@@H]1CCCN1C(=O)[C@H](CO)NC(=O)[C@H](Cc1c[nH]cn1)NC(=O)[C@H](Cc1c[nH]c2ccccc12)NC(=O)[C@H](CCCNC(=N)N)NC(=O)[C@H](CC(C)C)NC(=O)[C@H](CCCNC(=N)N)NC(=O)[C@H](Cc1c[nH]c2ccccc12)NC(=O)[C@H](CS)NC(=O)CCCCCNC(=O)CN1CCN(CC(=O)O)CCN(CC(=O)O)CCN(CC(=O)O)CC1)C(=O)O [copper-64 labelled]", "test": "ex vivo biodistribution", "system": "BALB/c nude mice, bone", "conditions": "intravenous, dose not given, 1 h, Huh-7 tumour-bearing", "tissue uptake": "1.17 %ID/g"}
{"SMILES": "CC(C)C[C@@H](NC(=O)[C@@H](CCCNC(=N)N)NC(=O)[C@@H](Cc1c[nH]cn1)NC(=O)[C@@H](Cc1c[nH]c2ccccc12)NC(=O)[C@@H](Cc1c[nH]cn1)NC(=O)[C@@H](Cc1ccccc1)NC(=O)[C@H](NC(=O)[C@@H](Cc1ccc(O)cc1)NC(=O)CNC(=O)CNC(=O)CCOCCOCCOCCNC(=O)CN1CCN(CC(=O)O)CCN(CC(=O)O)CC1)[C@H](C)O)C(=O)N[C@H](CC(N)=O)C(=O)N1CCC[C@@H]1C(=O)O [gallium-68 labelled]", "test": "gamma counting", "system": "C57BL/6 mice, male, liver", "conditions": "intravenous, 1.85 MBq, 30 min", "tissue uptake": "1.69 ± 0.24 %ID/g"}
{"note": "Some of these lines once more:"}
{"SMILES": "CC[C@H](C)[C@H](NC(=O)[C@H](CCCNC(=N)N)NC(=O)[C@H](CCCCN)NC(=O)[C@H](Cc1ccc(O)cc1)NC(=O)[C@H](CC(=O)O)NC(=O)[C@H](C)NC(=O)CNC(=O)CCOCCOCCOCCNC(=O)CN1CCN(CC(=O)O)CCN(CC(=O)O)CCN(CC(=O)O)CC1)C(=O)N[C@H](C(=O)N[C@H](C(=O)N[C@@H](CCCCN)C(=O)N[C@H](C(=O)N[C@@H](CC(N)=O)C(N)=O)C(C)C)C(C)C)[C@@H](C)O [copper-64 labelled]", "test": "ex vivo gamma counting", "system": "C57BL/6J male mice, B16-F10 tumour, testis", "conditions": "intravenous, 1.85 MBq, 20 min", "tissue uptake": "0.599 ± 0.016 %ID/g"}
